Experimental data of several laboratories.
Protocols differ between the studies behind these lines. Values joined by “and” are separate records of one study, mostly repeats; a detail may differ. ± marks the error that the study gave.

With `CC(=O)[O-].CN1CCCN2CCN(C)CCCN(CC1)CC2.F[P-](F)(F)(F)(F)F.[Co+2]` the peak separation was 220 mV (cyclic voltammetry, item: first Co2+/Co3+ couple; acetonitrile).
`CN(C)C(CNC(=O)Nc1cc(C(F)(F)F)ccc1N1CCOCC1)c1ccncc1` (centres unmarked) — result for “serum alkaline phosphatase”: 329 U/L (mouse, serum; intraperitoneal, 360 mg/kg single dose).
For `CCCCCCCC(=O)OC[C@H](NC(=O)[C@H](CO)NC(=O)CN)C(=O)N[C@@H](Cc1ccccc1)C(=O)N[C@@H](CC(C)C)C(=O)N[C@@H](CO)C(=O)N1CCC[C@H]1C(=O)N[C@@H](CCC(=O)O)C(=O)N[C@@H](Cc1cnc[nH]1)C(=O)N[C@@H](CCC(N)=O)C(=O)N[C@@H](CCCNC(=N)N)C(=O)N[C@H](C(=O)N[C@@H](CCC(N)=O)C(=O)N[C@@H](CCC(N)=O)C(=O)N[C@@H](CCCNC(=N)N)C(=O)N[C@@H](CCCCN)C(=O)N[C@@H](CCC(=O)O)C(=O)N[C@@H](CO)C(=O)N[C@@H](CCCCN)C(=O)N[C@@H](CCCCN)C(=O)N1CCC[C@H]1C(=O)N1CCC[C@H]1C(=O)N[C@@H](C)C(=O)N[C@@H](CCCCN)C(=O)N[C@@H](CC(C)C)C(=O)N[C@@H](CCC(N)=O)C(=O)N1CCC[C@H]1C(=O)N[C@@H](CCCNC(=N)N)C(=O)O)C(C)C`, “peak concentration fold increase” read 355 fold (human, plasma; intravenous infusion, 3 µg/kg/h; baseline: baseline).
With `O=P1(NCCCl)NCCCO1` (centres unmarked) the Tmax was 2.25 ± 0.88 h (rat, plasma; intravenous, 10 mg/kg, together with: ketoconazole 20 mg/kg oral 50 min before).
For `CCCCCCCCCCCCC(=O)O.O=C1CCCC2C3CCCN4CCCC(CN12)C34` (centres unmarked), “log octanol-water partition coefficient” read 0.65 (shake-flask; ultrapure water; pH 7.0, 37 °C).
The C0 of `COc1cc(NC(=O)C(=O)c2c(C)n(Cc3ccc(Cl)cc3)c3ccc(C)cc23)ccn1` is reported as 2.21 µg/mL and 2.91 µg/mL and 2.59 µg/mL and 2.2 µg/mL and 2.08 µg/mL (male cynomolgus monkey, plasma; intravenous, 1 mg/kg).
`[2H]C([2H])([2H])C([2H])([2H])C([2H])([2H])OC(C(=O)OC1CCNCC1)(c1ccccc1)c1ccccc1` has an adverse events of 14.3% (item: aspartate aminotransferase increased; healthy Japanese male; oral, 12 mg once daily, 16 days).
With `Cc1ccc2c(n1)c(-c1cccc(S(C)(=O)=O)c1)c(C)n2C/C(F)=C/CN` the terminal half-life was roughly 24 h (healthy male subjects, plasma; oral, dose not given, single ascending dose).
With `CC(C)C[C@H](NC(=O)[C@H](CCCCN)NC(=O)[C@H](CCC(=O)O)NC(=O)[C@H](C)NC(=O)[C@@H](NC(=O)[C@H](CCCCN)NC(=O)[C@H](CC(=O)O)NC(=O)[C@H](Cc1ccc(O)cc1)NC(=O)[C@H](Cc1ccccc1)NC(=O)[C@H](C)NC(=O)[C@H](CCCCN)NC(=O)[C@H](CC(C)C)NC(=O)[C@H](Cc1c[nH]c2ccccc12)NC(=O)[C@@H](N)CC(=O)O)C(C)C)C(=O)N[C@@H](CCCCN)C(=O)N[C@@H](CCC(=O)O)C(=O)N[C@@H](C)C(=O)N[C@@H](Cc1ccccc1)C(=O)N1CCC[C@H]1C(=O)N[C@@H](CC(=O)O)C(=O)N[C@@H](Cc1c[nH]c2ccccc12)C(=O)N[C@@H](C)C(=O)N[C@@H](CCCCN)C(=O)N[C@@H](C)C(=O)N[C@@H](C)C(=O)N[C@@H](Cc1ccc(O)cc1)C(=O)N[C@@H](CC(=O)O)C(=O)N[C@@H](CCCCN)C(=O)N[C@@H](C)C(=O)N[C@@H](C)C(=O)N[C@@H](CCC(=O)O)C(=O)N[C@@H](CCCCN)C(=O)N[C@@H](C)C(=O)N[C@@H](CCCCN)C(=O)N[C@@H](CCC(=O)O)C(=O)N[C@@H](C)C(=O)N[C@@H](C)C(=O)O` the Tmax was 0 h (cynomolgus monkey male, plasma; intravenous infusion, 25 mg/kg every other day, day 27).
Under “tumour to tissue ratio”, `COc1ccc(C)cc1NC(=O)OC1CC2CCCC(C1)N2Cc1ccc(CC[18F])cc1` (centres unmarked) is recorded as 0.41 (BALB/c mice, EMT6 tumour; 1 h; baseline: tumour over fat).
`C[C@H]1C(=O)O[C@@H]2O[C@@]3(C)CC[C@@H]4[C@@]2(OO3)[C@H]1CC[C@]4(C)O` has a free Cmax of 0.175 ± 0.0643 µM (healthy Chinese human; oral, dose not given, day 2).
The AST of `CSCC[C@@H]1NC(=O)[C@@H]2CSSC[C@H](NC(=O)[C@H](CO)NC(=O)[C@H](C)N)C(=O)N[C@@H](CCCNC(=N)N)C(=O)N[C@@H]([C@@H](C)O)C(=O)N3CCC[C@H]3C(=O)N[C@@H](CCCCN)C(=O)N[C@@H](CC(=O)O)C(=O)N[C@H]3CSSC[C@H](NC(=O)[C@H](CCCCN)NC(=O)[C@H](CCCNC(=N)N)NC(=O)[C@H](CC(N)=O)NC1=O)C(=O)N[C@@H](CCCCN)C(=O)N[C@H]1CSSC[C@H](NC(=O)[C@@H]4CCCN4C(=O)[C@H](CC(=O)O)NC(=O)[C@H](C)NC3=O)C(=O)N[C@@H](C)C(=O)N[C@@H](CCCCN)C(=O)N[C@@H](CCC(=O)O)C(=O)N[C@@H]([C@@H](C)O)C(=O)NCC(=O)N[C@@H](CSSC[C@@H](C(N)=O)NC(=O)[C@H](CCCNC(=N)N)NC(=O)[C@H](CC(N)=O)NC1=O)C(=O)N1CCC[C@H]1C(=O)N[C@@H](Cc1ccc(O)cc1)C(=O)NCC(=O)N[C@@H](CCCCN)C(=O)N2` is reported as 86.4 U/L (DA rat, pristane-induced arthritis, serum; subcutaneous, 0.1 mg/kg once weekly, end of 21-day trial).
`CN[C@](C)(C[18F])C(=O)O` gave a tissue uptake of 0.3 ± 0.1 %ID/g (SCID mouse U87 xenograft, brain; 60 min, post injection).
For `CC(C)C[C@@H](NC(=O)[C@@H](CCCCN)NC(=O)CNC(=O)CNC(=O)[C@@H]1CSSC[C@H](N)C(=O)NCC(=O)N[C@@H](CCCNC(=N)N)C(=O)N[C@@H](CCCNC(=N)N)C(=O)N[C@@H](C)C(=O)NCC(=O)NCC(=O)N[C@@H](CO)C(=O)N1)C(=O)N[C@H](C)C(=O)N[C@H](CCCCN)C(=O)N[C@H](CC(C)C)C(=O)N[C@H](C)C(=O)N[C@H](CCCCN)C(=O)N[C@H](CCCCN)C(=O)N[C@H](CC(C)C)C(=O)N[C@H](C)C(=O)N[C@H](CCCCN)C(=O)N[C@H](CC(C)C)C(=O)N[C@H](C)C(=O)N[C@H](CCCCN)C(=O)O`, kidney weight read “increased” (cynomolgus monkey; intravenous, dose not given, weekly, highest dose).
`CC(C)C[C@H](NC(=O)[C@H](CCCNC(=N)N)NC(=O)[C@H](CCC(=O)O)NC(=O)CNC(=O)[C@H](CCCCN)NC(=O)[C@@H](NC(=O)[C@H](Cc1ccccc1)NC(=O)[C@H](Cc1c[nH]c2ccccc12)NC(=O)[C@H](CCCCN)NC(=O)[C@H](CCCCN)NC(=O)[C@H](Cc1c[nH]c2ccccc12)NC(=O)CN)[C@@H](C)O)C(=O)N[C@@H](CO)C(=O)N[C@@H](CCC(N)=O)C(=O)N[C@@H](CCCNC(=N)N)C(=O)N[C@@H](Cc1c[nH]cn1)C(=O)N[C@@H](Cc1ccccc1)C(=O)N[C@@H](C)C(=O)O` — result for toxicity: “not toxic” (zebrafish embryos; 1, 5, 25 µM, 4, 28, 52 hpf).
`CC(C)C(=O)OC1O[C@@H]2O[C@@]3(C)CC[C@H]4[C@H](C)CCC([C@H]1C)[C@@]24OO3` (some centres unmarked) has a dead embryos of 2 count (Tg(fli1:EGFP) zebrafish embryos; 0.5 µg/mL, up to 48 hpf).
The CL/F of `CC[C@H](C)C(=O)N1CCC(NC(=O)Nc2ccc(OC(F)(F)F)c(F)c2)CC1` is reported as 1.91 L/h (human, plasma; oral, 8 mg, single dose, fed, healthy volunteers).
Under “terminal half-life (t1/2γ)”, `CSCC[C@H](NC(=O)CNC(=O)[C@H](CC(=O)O)NC(=O)[C@@H](NC(=O)[C@@H](NC(=O)[C@@H](NC(=O)CNC(=O)[C@H](CCC(N)=O)NC(=O)[C@H](CCSC)NC(=O)[C@H](CC(=O)O)NC(=O)[C@H](C)NC(=O)[C@H](C)NC(=O)[C@@H](NC(=O)[C@H](CO)NC(=O)[C@@H](N)CC(C)C)[C@@H](C)O)C(C)C)C(C)C)[C@@H](C)O)C(=O)N[C@@H](C)C(=O)N[C@@H](CO)C(=O)NCC(=O)N[C@@H](CC(C)C)C(=O)N[C@@H](CC(=O)O)C(=O)N[C@@H](CCCCN)C(=O)N[C@@H](CC(=O)O)C(=O)N[C@@H](Cc1ccc(O)cc1)C(=O)N[C@@H](CC(C)C)C(=O)N[C@@H](CCCCN)C(=O)N1CCC[C@H]1C(=O)N[C@@H](CC(=O)O)C(=O)N[C@@H](CC(=O)O)C(=O)O` is recorded as 2.16 h (LC-MS/MS; patients, serum; intravenous infusion, 3.33 mg/kg).
`CCN(Cc1ccccc1)C(=O)CCc1nc(CN2CCN(C(=O)Cc3ccc(OC)c(OC)c3)CC2)no1` has a concentration of less than 1.8 ng/g (rat, kidney; intravenous, 1 mg/kg, 15 min, single dose).
`[3H]c1sc(C)nc1C=C(C)C1CC2C(CCCC(C)C(O)C(C)C(=O)C(C)(C)C(O)CC(=O)O1)N2CCO` (centres unmarked) — result for “radioactivity in tissue”: 28.8 ± 26.6 µg-eq/g (whole-body autoradiography; CD2F1 mice, intestine contents; intravenous, 2.2 nmol/kg, 24 h).
`CC(C)[C@H](NC(=O)CNC(=O)[C@H](CCC(N)=O)NC(=O)[C@H](C)N)C(=O)O` — result for “subjects given concomitant medication”: 0% (human; 30 mg/kg, 3 days, thrice daily dosing).
`CC(C)[C@H](NC(=O)CNC(=O)[C@H](CCC(N)=O)NC(=O)[C@H](C)N)C(=O)O` — result for “subjects with any AE”: 25% (healthy male volunteers; intravenous, 15 mg/kg/h, 2 h, together with: LPS 2 ng/kg).
The HDL level of `Cc1ccc(/C=C/C(=O)O)cc1-c1cc2c(cc1C)C(C)(C)CCC2(C)C` is reported as 57 ± 10 mg/dL (Sprague-Dawley rat, male, plasma; oral, 100 mg/kg, 3 h, sesame oil vehicle).
For `CC(=CCC(O)C(C)=Cc1csc(C)n1)CC=CC(C)C(O)C(C)C(=O)C(C)(C)C(O)CC(=O)O` (centres unmarked), the Cmax was 0.00193 ± 0.00073 µg/mL (human, plasma; intravenous infusion, 6.5 mg/m2 KOS-1584, 3 h infusion, cycle 1).
The HPLC purity of `C[C@@H](O)[C@H](NC(=O)[C@H](CCCCN)NC(=O)CCC(=O)O)C(=O)NCC(=O)N[C@@H](CC(=O)O)C(=O)N[C@@H](CCC(=O)O)C(=O)N[C@@H](CCCCN)C(=O)N[C@@H](CCCCN)C(=O)NCC(=O)NCC(=O)N[C@@H](Cc1ccc(O)cc1)C(=O)NCC(=O)N[C@@H](CCCNC(=N)N)C(=O)N[C@@H](CCCCN)C(=O)N[C@@H](CCCCN)C(=O)N[C@@H](CCCNC(=N)N)C(=O)N[C@@H](CCCNC(=N)N)C(=O)N[C@@H](CCC(N)=O)C(=O)N[C@@H](CCCNC(=N)N)C(=O)N[C@@H](CCCNC(=N)N)C(=O)N[C@@H](CCCNC(=N)N)C(N)=O` is reported as 100% (PBS; up to 24 h, pH 7.4, 80 °C).
The radiochemical purity of `CCCC[C@H]1C(=O)N(C)[C@@H](CCCC)C(=O)N[C@@H](CCCNC(=O)CN2CCN(CC(=O)O)CCN(CC(=O)O)CCN(CC(=O)O)CC2)C(=O)N[C@H](C(=O)NCC(N)=O)CSCC(=O)N[C@@H](Cc2ccc(O)cc2)C(=O)N(C)[C@@H](C)C(=O)N[C@@H](CC(N)=O)C(=O)N2CCC[C@H]2C(=O)N[C@@H](Cc2c[nH]cn2)C(=O)N[C@@H](CC(C)C)C(=O)N(C)CC(=O)N[C@@H](Cc2c[nH]c3ccccc23)C(=O)N[C@@H](CO)C(=O)N[C@@H](Cc2c[nH]c3ccccc23)C(=O)N1C` [gallium-68 labelled] is reported as greater than 95% (Kunming mouse, blood; intravenous, 15 min).
`COC(=O)C[C@](O)(CCCC(C)(C)OC(C)=O)C(=O)O[C@@H]1C(OC)=C[C@]23CCCN2CCc2cc4c(cc2[C@H]13)OCO4` gave a tissue concentration of 275 ng/mL (CD1 mouse, liver; oral, 1 mg/kg, 2 h).
`CC(=O)c1cccc(-c2cccc(OC(=O)NC3CCCCC3)c2)c1`: “log hydrolysis rate constant” -1 (rat liver S9 fraction; together with: NADPH-regenerating system).
`CC[C@H](C)[C@H](NC(=O)[C@H](CC(N)=O)NC(=O)[C@H](Cc1ccccc1)NC(=O)CNC(=O)[C@H](CC(C)C)NC(=O)[C@H](Cc1ccccc1)NC(=O)[C@H](Cc1ccccc1)NC(=O)Cc1ccc2ccccc2c1)C(=O)O`: “minimum gelation concentration” 622 µM (water; overnight, pH 6.4, hydrogel formation).

A few entries again:
`COC(=O)C[C@](O)(CCCC(C)(C)OC(C)=O)C(=O)O[C@@H]1C(OC)=C[C@]23CCCN2CCc2cc4c(cc2[C@H]13)OCO4` gave a tissue concentration of 275 ng/mL (CD1 mouse, liver; oral, 1 mg/kg, 2 h).
The CL/F of `CC[C@H](C)C(=O)N1CCC(NC(=O)Nc2ccc(OC(F)(F)F)c(F)c2)CC1` is reported as 1.91 L/h (human, plasma; oral, 8 mg, single dose, fed, healthy volunteers).
